Measurements from different studies.
Lines come from different studies, so protocols differ. ± marks the error that the study gave.
Sequence of UniProt P35372 (whole entry, looked up): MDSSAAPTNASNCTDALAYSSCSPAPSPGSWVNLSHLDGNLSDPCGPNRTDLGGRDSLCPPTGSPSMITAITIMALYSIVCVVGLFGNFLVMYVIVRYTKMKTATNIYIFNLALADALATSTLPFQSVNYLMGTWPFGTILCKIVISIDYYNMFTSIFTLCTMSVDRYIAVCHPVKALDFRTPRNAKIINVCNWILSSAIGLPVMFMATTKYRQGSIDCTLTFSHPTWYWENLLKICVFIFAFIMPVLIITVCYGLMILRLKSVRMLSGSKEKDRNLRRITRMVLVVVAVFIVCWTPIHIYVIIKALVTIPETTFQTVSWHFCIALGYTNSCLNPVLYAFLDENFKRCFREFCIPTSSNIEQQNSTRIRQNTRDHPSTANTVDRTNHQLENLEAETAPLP
Sequence of UniProt P57059 (whole entry, looked up): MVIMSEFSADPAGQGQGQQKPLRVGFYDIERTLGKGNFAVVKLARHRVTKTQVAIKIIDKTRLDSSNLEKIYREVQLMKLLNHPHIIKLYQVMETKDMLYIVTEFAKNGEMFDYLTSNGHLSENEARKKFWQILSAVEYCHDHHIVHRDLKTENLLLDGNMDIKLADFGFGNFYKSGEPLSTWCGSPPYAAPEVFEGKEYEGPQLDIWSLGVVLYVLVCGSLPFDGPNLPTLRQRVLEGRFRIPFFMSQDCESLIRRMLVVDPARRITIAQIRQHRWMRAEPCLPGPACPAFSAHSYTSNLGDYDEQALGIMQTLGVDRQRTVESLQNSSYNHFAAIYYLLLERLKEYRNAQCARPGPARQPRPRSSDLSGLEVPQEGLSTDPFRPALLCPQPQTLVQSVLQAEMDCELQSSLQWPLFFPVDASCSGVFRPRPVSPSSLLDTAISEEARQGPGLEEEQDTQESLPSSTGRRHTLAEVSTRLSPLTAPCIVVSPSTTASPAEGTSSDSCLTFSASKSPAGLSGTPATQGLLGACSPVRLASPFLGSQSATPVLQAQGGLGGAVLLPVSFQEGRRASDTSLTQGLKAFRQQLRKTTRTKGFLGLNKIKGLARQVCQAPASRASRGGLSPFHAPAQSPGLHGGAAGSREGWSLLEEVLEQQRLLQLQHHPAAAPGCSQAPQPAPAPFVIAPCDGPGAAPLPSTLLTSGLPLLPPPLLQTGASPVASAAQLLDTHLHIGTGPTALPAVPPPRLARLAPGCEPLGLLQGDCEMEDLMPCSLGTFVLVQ
Sequence of UniProt P0A988 (whole entry, unmodified, looked up): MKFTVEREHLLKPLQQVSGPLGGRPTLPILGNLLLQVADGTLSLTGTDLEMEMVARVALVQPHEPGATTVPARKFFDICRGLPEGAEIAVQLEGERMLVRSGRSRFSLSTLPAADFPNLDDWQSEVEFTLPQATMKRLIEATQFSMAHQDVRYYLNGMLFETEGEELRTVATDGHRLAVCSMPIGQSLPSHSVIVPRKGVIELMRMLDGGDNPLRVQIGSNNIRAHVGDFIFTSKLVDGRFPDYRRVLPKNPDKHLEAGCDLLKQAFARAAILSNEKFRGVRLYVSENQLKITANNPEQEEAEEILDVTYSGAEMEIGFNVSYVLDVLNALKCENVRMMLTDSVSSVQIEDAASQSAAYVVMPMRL
Sequence of UniProt Q13224 (whole entry, looked up): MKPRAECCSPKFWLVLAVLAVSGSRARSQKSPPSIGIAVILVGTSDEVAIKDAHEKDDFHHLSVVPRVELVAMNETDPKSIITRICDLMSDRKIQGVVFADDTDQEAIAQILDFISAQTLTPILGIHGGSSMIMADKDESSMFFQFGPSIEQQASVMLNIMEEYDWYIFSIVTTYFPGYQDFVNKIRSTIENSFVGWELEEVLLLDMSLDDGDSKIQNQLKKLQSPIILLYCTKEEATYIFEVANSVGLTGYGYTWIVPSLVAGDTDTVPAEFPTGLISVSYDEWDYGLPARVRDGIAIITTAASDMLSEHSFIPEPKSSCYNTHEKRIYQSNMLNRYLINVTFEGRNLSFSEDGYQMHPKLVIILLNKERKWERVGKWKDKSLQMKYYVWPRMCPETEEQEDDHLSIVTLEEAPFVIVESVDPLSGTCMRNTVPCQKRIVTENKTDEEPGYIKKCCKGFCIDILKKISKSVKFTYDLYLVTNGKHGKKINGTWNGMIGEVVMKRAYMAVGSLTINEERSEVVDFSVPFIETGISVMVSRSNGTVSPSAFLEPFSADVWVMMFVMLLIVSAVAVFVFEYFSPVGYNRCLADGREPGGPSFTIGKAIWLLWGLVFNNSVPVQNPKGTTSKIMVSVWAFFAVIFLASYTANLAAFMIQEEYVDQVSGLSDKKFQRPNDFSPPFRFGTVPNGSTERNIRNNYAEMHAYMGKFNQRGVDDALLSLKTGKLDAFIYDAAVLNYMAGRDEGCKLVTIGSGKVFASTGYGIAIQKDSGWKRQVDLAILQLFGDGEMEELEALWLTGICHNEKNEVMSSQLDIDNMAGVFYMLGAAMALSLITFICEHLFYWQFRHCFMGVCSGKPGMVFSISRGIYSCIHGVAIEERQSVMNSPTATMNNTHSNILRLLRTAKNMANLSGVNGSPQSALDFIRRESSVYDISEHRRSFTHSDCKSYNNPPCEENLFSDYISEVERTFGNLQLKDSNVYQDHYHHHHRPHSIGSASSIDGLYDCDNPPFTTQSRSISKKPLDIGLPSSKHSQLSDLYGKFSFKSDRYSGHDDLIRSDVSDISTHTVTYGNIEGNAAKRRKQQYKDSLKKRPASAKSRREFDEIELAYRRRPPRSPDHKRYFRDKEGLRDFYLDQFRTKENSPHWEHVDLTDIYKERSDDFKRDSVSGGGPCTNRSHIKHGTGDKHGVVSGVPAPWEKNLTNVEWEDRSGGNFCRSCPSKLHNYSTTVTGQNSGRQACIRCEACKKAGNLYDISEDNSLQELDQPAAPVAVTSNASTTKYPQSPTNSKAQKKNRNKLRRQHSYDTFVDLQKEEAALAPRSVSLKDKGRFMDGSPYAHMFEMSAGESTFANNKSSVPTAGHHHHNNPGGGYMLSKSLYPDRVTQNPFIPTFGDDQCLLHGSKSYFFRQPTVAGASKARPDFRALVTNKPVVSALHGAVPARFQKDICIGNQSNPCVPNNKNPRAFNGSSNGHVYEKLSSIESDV
Sequence of UniProt Q8VD66 (whole entry, looked up): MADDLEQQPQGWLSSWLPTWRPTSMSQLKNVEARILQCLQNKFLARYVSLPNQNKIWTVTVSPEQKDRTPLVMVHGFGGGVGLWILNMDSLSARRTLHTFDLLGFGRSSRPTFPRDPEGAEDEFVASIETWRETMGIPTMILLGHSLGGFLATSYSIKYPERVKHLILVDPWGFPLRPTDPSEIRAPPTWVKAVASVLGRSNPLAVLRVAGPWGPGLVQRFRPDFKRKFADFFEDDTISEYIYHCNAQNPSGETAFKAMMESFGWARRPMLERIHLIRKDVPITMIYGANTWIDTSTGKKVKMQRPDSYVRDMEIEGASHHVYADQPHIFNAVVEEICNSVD
Sequence of UniProt Q9BRA2 (whole entry, looked up): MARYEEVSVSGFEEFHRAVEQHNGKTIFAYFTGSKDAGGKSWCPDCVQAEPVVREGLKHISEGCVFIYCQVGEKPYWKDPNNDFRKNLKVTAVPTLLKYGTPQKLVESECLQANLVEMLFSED
Sequence of UniProt Q13639 (whole entry, looked up): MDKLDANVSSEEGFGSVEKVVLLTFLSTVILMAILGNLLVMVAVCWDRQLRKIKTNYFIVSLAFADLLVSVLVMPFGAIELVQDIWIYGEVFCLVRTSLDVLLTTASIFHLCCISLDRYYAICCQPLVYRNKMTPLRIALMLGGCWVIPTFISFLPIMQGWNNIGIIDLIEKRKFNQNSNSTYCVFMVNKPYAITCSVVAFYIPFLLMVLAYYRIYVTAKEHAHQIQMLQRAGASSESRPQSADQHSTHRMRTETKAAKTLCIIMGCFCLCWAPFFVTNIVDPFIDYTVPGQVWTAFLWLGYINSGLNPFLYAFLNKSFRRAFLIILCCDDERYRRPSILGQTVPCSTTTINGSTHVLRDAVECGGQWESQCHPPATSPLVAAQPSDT

Structure (SMILES)	target	assay	test system	setting	how to read	quantity	result
F[B-](F)(F)c1cccc(/N=N/c2ccccc2)c1.[K+]	Chymotrypsinogen A (Bos taurus, UniProt P00766)	enzyme activity, inhibitor		together with: Suc-AAPF-AMC	reference: Ki cis over Ki trans	switching factor	5.5 ± 0.2
COc1ccccc1-c1nc2sc3c(c2c(=O)o1)CCC3	Genome polyprotein, 3C protease (rhinovirus B14, UniProt P03303)	protease activity, SAMDI-MS				Hill slope	1.08
CC(C)[C@H]1NC(=O)C[C@H]2/C=C/CCSSC[C@@H](NC1=O)C(=O)N[C@H](Cc1cccc3ccccc13)C(=O)NCC(=O)O2	PDK2 (Homo sapiens, UniProt Q15119)	enzyme activity, inhibitor		10 µM		inhibition	5.5%
CN(C)CCCSC(=S)N1CCN(C(=O)/C=C/c2coc3ccccc3c2=O)CC1	Nucleoprotein (N, Tomato spotted wilt virus, UniProt P25999, R94A)	binding, microscale thermophoresis		7.812 µM	dose series	MST response	841 a.u.
CS(C)(=O)=Nc1ccc(-c2ccc(-c3nc4cc(O[C@@H]5CO[C@H]6[C@@H]5OC[C@H]6O)[nH]c4cc3F)cc2)cc1	5-hydroxytryptamine receptor 4, isoform 5-HT4e (HTR4, Homo sapiens, UniProt Q13639)	agonist response, agonist		10 µM	reference: control agonist	activity	-9.7%
CN(C)[C@H]1C[C@@]23CC[C@@]4(O2)C(=CC[C@]2(C)[C@@H](c5ccc6ccncc6c5)CC[C@H]24)C=C3[C@@H](O)[C@@H]1O	ATR (Homo sapiens, UniProt Q13535)	ATP probe labelling, inhibitor, KiNativ profiling		0.1 µM		inhibition	-2.2%
C/C(=N\OCCCN1CCCCC1)c1ccc(C(F)(F)F)cc1	Glutamate NMDA receptor; GRIN1/GRIN2B (GRIN1/GRIN2B, Homo sapiens, UniProt Q05586+Q13224)	agonist, manual patch clamp		10 µM		activation	1.87%
C=CC(=O)NC[C@H](NC(=O)[C@H](CC1CCCCC1)NC(=O)[C@H](CCC(N)=O)NC(C)=O)C(=O)N[C@@H](CC(C)C)C(=O)N[C@@H](Cc1ccccc1)C(=O)O	Beta sliding clamp (Escherichia coli, UniProt P0A988)	binding, isothermal titration calorimetry		22 °C		ΔH	-11.4 kcal/mol
O=C1NC(=O)c2c1c1cc(F)c[n+]3c1c1c2c2cc(O)ccc2[n]1[Ru-4]312([N]=C=S)[S+]3CC[S+]1CC[S+]2CC3 (stereo not shown)	SIK1 (Homo sapiens, UniProt P57059)	enzyme activity		100 nM, human enzyme, together with: 10 µM ATP	reference: untreated	remaining activity	19%
C#CCCCCOc1ccc2c(c1)CCCN2C(=O)CCl	Small ribosomal subunit protein uS17 (Homo sapiens, UniProt P62280)	mass spectrometry profiling, measured: RPS11	H460 cell lysate	100 µM over 10 µM, UniProt P62280	reference: high over low concentration	reactivity ratio	1.6
C[C@@H](Cc1ccsc1)NC(=O)NC[C@H](Cc1ccc(O)cc1)N(C)C	Mu-type opioid receptor, with GoB (OPRM1, Homo sapiens, UniProt P35372)	receptor activation, agonist				Emax	89 ± 5%
C#CCOC1CCN(c2ccc(C=NNC(=O)CCl)cc2)CC1	Thioredoxin domain-containing protein 17 (Homo sapiens, UniProt Q9BRA2)	cysteine labelling, gel-based live-cell labelling	HEK-293T	strong ligand-dependent labelling		labelling concentration	0.1 to 0.5 µM
O=C(N1CCCCC1)n1ccnn1	(Lyso)-N-acylphosphatidylethanolamine lipase (Abhd4, Mus musculus, UniProt Q8VD66)	probe labelling, inhibitor, competitive ABPP-SILAC, measured: Abhd4	mouse T cells	concentration not given, 4 h, protein level	reference: treated over DMSO cells, lower = stronger inhibition	SILAC activity ratio	1.1
